Measurements of several laboratories.
Each line is one published result; not all experiments were run side by side.
Technique: steady-state kinetics
B1: BKGD (Homo sapiens, UniProt Q9H0W9); chain MACAEFSFHVPSLEELAGVMQKGLKDNFADVQVSVVDCPDLTKEPFTFPVKGICGKTRIAEVGGVPYLLPLVNQKKVYDLNKIAKEIKLPGAFILGAGAGPFQTLGFNSEFMPVIQTESEHKPPVNGSYFAHVNPADGGCLLEKYSEKCHDFQCALLANLFASEGQPGKVIEVKAKRRTGPLNFVTCMRETLEKHYGNKPIGMGGTFIIQKGKVKSHIMPAEFSSCPLNSDEEVNKWLHFYEMKAPLVCLPVFVSRDPGFDLRLEHTHFFSRHGEGGHYHYDTTPDIVEYLGYFLPAEFLYRIDQPKETHSIGRD
B2: Ma-WS/DGAT A144F (Marinobacter nauticus); chain MTPLNPTDQLFLWLEKRQQPMHVGGLQLFSFPEGAPDDYVAQLADQLRQKTEVTAPFNQRLSYRLGQPVWVEDEHLDLEHHFRFEALPTPGRIRELLSFVSAEHSHLMDRERPMWEVHLIEGLKDRQFALYTKVHHSLVDGVSFMRMATRMLSENPDEHGMPPIWDLPCLSRDRGESDGHSLWRSVTHLLGLSGRQLGTIPTVAKELLKTINQARKDPAYDSIFHAPRCMLNQKITGSRRFAAQSWCLKRIRAVCEAYGTTVNDVVTAMCAAALRTYLMNQDALPEKPLVAFVPVSLRRDDSSGGNQVGVILASLHTDVQEAGERLLKIHHGMEEAKQRYRHMSPEEIVNYTALTLAPAAFHLLTGLAPKWQTFNVVISNVPGPSRPLYWNGAKLEGMYPVSIDMDRLALNMTLTSYNDQVEFGLIGCRRTLPSLQRMLDYLEQGLAELELNAGL
B3: sacB S173A (Priestia megaterium, UniProt D5DC07); chain KGNDSKDFNNSYGISHITRDNMVKIPQQQNSDQFKVPAFDESTIKNIASAKGKNASGNTIDLDVWDSWPLQNADGTVATYHGYQIVFALAGDPKDSNDTSVYLFYKKAGDKSIDSWKNAGRVFKDSDKFVPNDPHLKNQTQEWAGSGTLTKDGKVRLFYTDYSGKQYGKQTLTTAQVNMSQPNDNTLKVDGVEDYKSIFDGDGKIYQTVQQFIDEGGYDTGDNHTLRDPHYIEDNGHKYLVFEANTGTEDGYQGEDSLYNRAYYGGNNPFFQSEKKKLLEGSNKEKASLANGALGIIELNDDYTLKKVMKPLITSNTVTDEIERANIFKKDGKWYLFTDSRGSKMTIDGIGQDDVYMLGYVSNTLTGKYKPLNDTGLVLHMDLDPNDKTFTYSHFAVPQTKGDNVVITSYMTNRGFYEDNHSTFAPSFLVNIDGSKTSVVKDRVLEQGQLTVDED
B4: GTPBP3 A322P/E225K (Homo sapiens, UniProt Q969Y2); chain TRRSSGAPAPGSGATIFALSSGQGRCGIAVIRTSGPASGHALRILTAPRDLPLARHASLRLLSDPRSGEPLDRALVLWFPGPQSFTGEDCVEFHVHGGPAVVSGVLQALGSVPGLRPAEAGEFTRRAFANGKLNLTEVEGLADLIHAETEAQRRQALRQLDGELGHLCRGWAETLTKALAHVEAYIDFGEDDNLEEGVLEQADIKVRALQVALGAHLRDARRGQRLRSGVHVVVTGPPNAGKSSLVNLLSRKPVSIVSPEPGTTRDVLETPVDLAGFPVLLSDTAGLREGVGPVEQEGVRRPRERLEQADLILAMLDASDLASPSSCNFLATVVASVGAQSPSDSSQRLLLVLNKSDLLSPEGPGPGPDLPPHLLLSCLTGEGLDGLLEALRKELAAVCGDPSTDPPLLTRARHQHHLQGCLDALGHYKQSKDLALAAEALRVARGHLTRLTGGGGTEEILDIIFQDFCVGK
B5: BPHL (Homo sapiens, UniProt Q86WA6); chain SVTSAKVAVNGVQLHYQQTGEGDHAVLLLPGMLGSGETDFGPQLKNLNKKLFTVVAWDPRGYGHSRPPDRDFPADFFERDAKDAVDLMKALKFKKVSLLGWSDGGITALIAAAKYPSYIHKMVIWGANAYVTDEDSMIYEGIRDVSKWSERTRKPLEALYGYDYFARTCEKWVDGIRQFKHLPDGNICRHLLPRVQCPALIVHGEKDPLVPRFHADFIHKHVKGSRLHLMPEGKHNLHLRFADEFNKLAEDFLQ
B6: protein (Phaseolus vulgaris, UniProt V7CJ62); chain MSAYKDQDPRLHGIKTKIRVVPNFPKSGIMFQDITTLLLDPKAFKDTIDLFVERYKGKNISVVAGIEARGFIFGPPIALAIGAKFVPLRKPKKLPGKVISQEYILEYGRDCIEMHVGAVEPGERALVVDDLIATGGTLCAAMDLLERVGAEVVECACVIELPELKGRERLNGKPLYVLVEYMEI
B7: aromatic amino acid decarboxylase (Bacillus atrophaeus, UniProt I0DFJ0); chain MSENLQLSAEEMRQLGYQAVDLIIDHMNHLKSKPVSETIDSDILRNKLTESIPENGSDPKELLHFLNRNVFNQITHVDHPHFLAFVPGPNNYVGVVADFLASGFNVFPTAWIAGAGAEQIELTTINWLKSMLGFPDSAEGLFVSGGSMANLTALTVARQAKLNNDIENAVVYFSDQTHFSVDRALKVLGFKHHQICRIETDEHLRISVSALKKQIKEDRTKGKKPFCVIANAGTTNCGAVDSLNELADLCNDEDVWLHADGSYGAPAILSEKGSAMLQGIHRADSLTLDPHKWLFQPYDVGCVLIRNSQYLSKTFRMMPEYIKDSETNVEGEINFGECGIELSRRFRALKVWLSFKVFGVAAFRQAIDHGIMLAEQVEAFLGKAKDWEVVTPAQLGIVTFRYIPSELASTDTINEINKKLVKEITHRGFAMLSTTELKEKVVIRLCSINPRTTTEEMLQIMMKIKALAEEVSISYPCVAE
B8: ACP1 (Homo sapiens, UniProt P24666); chain AEQATKSVLFVCLGNICRSPIAEAVFRKLVTDQNISENWRVDSAATSGYEIGNPPDYRGQSCMKRHGIPMSHVARQITKEDFATFDYILCMDESNLRDLNRKSNQVKTCKAKIELLGSYDPQKQLIIEDPYYGNDSDFETVYQQCVRCCRAFLEKAH
B9: CBR1 (Homo sapiens, UniProt P16152); chain MSSGIHVALVTGGNKGIGLAIVRDLCRLFSGDVVLTARDVTRGQAAVQQLQAEGLSPRFHQLDIDDLQSIRALRDFLRKEYGGLDVLVNNAGIAFKVADPTPFHIQAEVTMKTNFFGTRDVCTELLPLIKPQGRVVNVSSIMSVRALKSCSPELQQKFRSETITEEELVGLMNKFVEDTKKGVHQKEGWPSSAYGVTKIGVTVLSRIHARKLSEQRKGDKILLNACCPGWVRTDMAGPKATKSPEEGAETPVYLALLPPDAEGPHGQFVSEKRVEQW
Sequence of UniProt P07914 (whole entry, looked up): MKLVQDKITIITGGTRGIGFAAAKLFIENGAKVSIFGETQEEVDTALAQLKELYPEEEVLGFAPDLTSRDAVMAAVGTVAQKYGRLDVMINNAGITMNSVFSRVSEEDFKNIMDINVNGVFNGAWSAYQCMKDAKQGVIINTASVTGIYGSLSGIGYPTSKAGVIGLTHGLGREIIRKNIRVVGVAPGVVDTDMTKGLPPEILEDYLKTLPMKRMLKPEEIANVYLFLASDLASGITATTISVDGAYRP
Sequence of UniProt P40308 (whole entry, looked up): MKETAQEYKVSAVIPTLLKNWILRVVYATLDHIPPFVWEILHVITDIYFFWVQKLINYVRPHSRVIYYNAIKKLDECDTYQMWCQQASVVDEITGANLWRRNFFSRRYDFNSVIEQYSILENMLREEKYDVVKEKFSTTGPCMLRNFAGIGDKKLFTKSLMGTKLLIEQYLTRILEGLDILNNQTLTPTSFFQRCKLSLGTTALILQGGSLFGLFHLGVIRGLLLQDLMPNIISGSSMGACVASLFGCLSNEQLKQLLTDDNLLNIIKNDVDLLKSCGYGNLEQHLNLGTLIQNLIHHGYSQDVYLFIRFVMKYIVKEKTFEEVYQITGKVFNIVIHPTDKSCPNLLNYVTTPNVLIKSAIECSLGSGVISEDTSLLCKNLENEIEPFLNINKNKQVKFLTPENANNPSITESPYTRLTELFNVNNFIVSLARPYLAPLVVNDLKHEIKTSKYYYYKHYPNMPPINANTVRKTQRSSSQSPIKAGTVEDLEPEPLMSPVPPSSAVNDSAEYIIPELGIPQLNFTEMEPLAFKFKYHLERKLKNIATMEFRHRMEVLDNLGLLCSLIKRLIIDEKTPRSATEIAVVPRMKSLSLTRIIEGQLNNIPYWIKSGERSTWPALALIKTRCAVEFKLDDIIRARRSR

| Substance | substrate | conditions | Km [µM] |
| --- | --- | --- | --- |
| B1 (BKGD) | O=C(O)[C@@H](O)C(=O)[C@H](O)[C@@H](O)CO | 37 °C | 20.2 |
| B2 (Ma-WS/DGAT A144F) | CCCCCC(=O)SCCNC(=O)CCNC(=O)[C@H](O)C(C)(C)COP(=O)(O)OP(=O)(O)OC[C@H]1O[C@@H](n2cnc3c(N)ncnc32)[C@H](O)[C@@H]1OP(=O)(O)O | pH 7.5, 25 °C, NaCl 300 mM, apparent, together with: 1-hexanol 4 mM | 166 |
| B3 (sacB S173A) | OC[C@H]1O[C@@](CO)(O[C@H]2O[C@H](CO)[C@@H](O)[C@H](O)[C@H]2O)[C@@H](O)[C@@H]1O | pH 6.6 | 3900 |
| B4 (GTPBP3 A322P/E225K) | Nc1nc2c(ncn2[C@@H]2O[C@H](COP(=O)(O)OP(=O)(O)OP(=O)(O)O)[C@@H](O)[C@H]2O)c(=O)[nH]1 | pH 8, 37 °C, KCl 300 mM | 37.8 |
| protein (Actinidia deliciosa, UniProt Q32W37) | CC(C)=CCC/C(C)=C/CC/C(C)=C/CO[P@@](=O)(O)OP(=O)(O)O | pH 7.5, together with: FPP 1-100 µM | 2.5 |
| TGL3 (Saccharomyces cerevisiae, UniProt P40308) | CCCCCCCC/C=C\CCCCCCCC(=O)SCCNC(=O)CCNC(=O)[C@H](O)C(C)(C)COP(=O)(O)OP(=O)(O)OC[C@H]1O[C@@H](n2cnc3c(N)ncnc32)[C@H](O)[C@@H]1OP(=O)(O)O | pH 7.5, 30 °C, together with: LPE | 18 |
| B5 (BPHL) | CC(C)[C@H](N)C(=O)NCc1cccc(NC=NN)c1 | pH 7.4, 37 °C | 1810 |
| B6 (protein) | Nc1ncnc2nc[nH]c12 | pH 7.5, 37 °C, MgCl2 5 mM, together with: PRPP 1 mM | 71 |
| B7 | N[C@@H](Cc1c[nH]c2c(Br)cccc12)C(=O)O | pH 7, 37 °C, not purified, together with: PLP 40 µM | 400 |
| B8 (ACP1) | O=[N+]([O-])c1ccc(OP(=O)(O)O)cc1 | pH 6.5, 37 °C | 6570 |
| B9 (CBR1) | C=C1C[C@@H]2[C@H](CC[C@]3(C)C(=O)CC[C@@H]23)[C@@]2(C)C=CC(=O)C=C12 | 37 °C | 265 |
| BaiA1 (Clostridium scindens, UniProt P07914) | C[C@H](CCC(=O)SCCNC(=O)CCNC(=O)[C@H](O)C(C)(C)COP(=O)(O)OP(=O)(O)OC[C@H]1O[C@@H](n2cnc3c(N)ncnc32)[C@H](O)[C@@H]1OP(=O)(O)O)[C@H]1CC[C@H]2[C@@H]3CC[C@@H]4C[C@H](O)CC[C@]4(C)[C@H]3CC[C@]12C | pH 8.7, 37 °C, together with: NAD+ | 22 |
| alanine aminopeptidase (Neisseria meningitidis, UniProt Q9JYV4) | CC[C@H](N)C(=O)Nc1ccc2c(CC(N)=O)cc(=O)oc2c1 | pH 7.5, 37 °C | 162 |
